Experimental data collected from several papers.
Numbered parts are unrelated; each lists some results of a single study.

Series 1 — technique: protein binding microarray; form: double-stranded DNA, one strand shown; matrix: in vitro; concentration: not given; baseline: not given; reading: higher = stronger binding
Target: Histone acetyltransferase KAT6A, winged helix 2, GST fusion (KAT6A, Homo sapiens, UniProt Q92794, residues 85-181)
Notes: 8-mer, flanks averaged, mean of 2 arrays, mostly near background
Construct (chain): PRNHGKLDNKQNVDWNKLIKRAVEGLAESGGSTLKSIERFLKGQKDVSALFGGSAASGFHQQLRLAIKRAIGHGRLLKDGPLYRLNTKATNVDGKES
`CTCAACAG` has an E-score of -0.0465.
With `ACAGTTCA` the E-score was 0.00271.
With `AACCTGAC` the E-score was -0.134.
The E-score of `AAGGAACA` is reported as 0.168.
`AACTCTTA` has an E-score of -0.0161.
For `AACACGCG`, the E-score was 0.075.
The E-score of `AGGATTAC` is reported as -0.101.
With `GTTCAGAA` the E-score was -0.045.
With `ACAGTCAG` the E-score was -0.0666.
The E-score of `CGTAGTAG` is reported as -0.0506.
`CCAGGAGC` gave an E-score of 0.0447.
With `GACAGCGA` the E-score was 0.0201.
`GATACGGA` gave an E-score of -0.0824.
`AAGCGAAG` has an E-score of 0.129.
For `AGCCGGTC`, the E-score was -0.0291.
With `TGCGCCAA` the E-score was 0.0358.
For `CGTCCGCA`, the E-score was 0.0355.
`ACACAGCG` has an E-score of 0.231.
The E-score of `AAAGAGCC` is reported as -0.163.
With `CAATGCGG` the E-score was 0.114.
`GCGCCTCA` has an E-score of -0.0233.
The E-score of `ATATCCCA` is reported as 0.165.
With `CCCTACCA` the E-score was -0.0459.
For `ATTACGAG`, the E-score was -0.0984.
The E-score of `AGGGCAAG` is reported as 0.152.

Series 2 — technique: RNA Bind-n-Seq; form: RNA; matrix: in vitro; concentration: 365 nM; baseline: no-protein control; reading: higher = stronger binding
Target: RNA binding protein fox-1 homolog 2, RRM domain, GST-SBP tag (RBFOX2, Homo sapiens, UniProt O43251-10, residues 100-194)
Notes: natural RNA segment, single round, ends assumed
Target sequence (chain): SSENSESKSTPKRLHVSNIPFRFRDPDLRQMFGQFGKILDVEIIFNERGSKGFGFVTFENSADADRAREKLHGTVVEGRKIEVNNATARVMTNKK
For `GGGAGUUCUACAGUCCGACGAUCGAUGAGUUUUUUUGUGGGUUGCUUUUUCUUCAGUGCUAAGAAAGUUCCCUCCAACAGGAACUCUCUGACCUGUUUAUUCAGGUGUAUUUCUGGUUUGGAUUUUUUUUUCCUGGAAUUCUCGGGUGCCAA`, “RBNS enrichment (R)” read 0.594.
`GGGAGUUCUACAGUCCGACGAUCGUGUCCCGGAGGAACAGGCUAAGCAAGGGGCCCAGGAAGUUGUCCAGAGGACAGGGGCUAAUGAGCUGCUCAGAGCUGCCCUGCCCCUGCUUCUGAACACUGCUUUCCACUGGAAUUCUCGGGUGCCAA`: “RBNS enrichment (R)” 0.396.
`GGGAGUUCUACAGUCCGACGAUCUUUCUCUUUCCUAGACUCGCGGUGCUCACAUCCAGACAUUACCUUGUUGGUAGCCCCCAAGUGGCGUGCAGUGACACCAGUAUCUUCUCUGUUGCAUUUUUGCAAUCUUGUGGAAUUCUCGGGUGCCAA`: “RBNS enrichment (R)” 0.277.
`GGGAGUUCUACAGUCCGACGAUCGACCCUGGGGGCUGUGCCCCCAUCUCCUCCCCACCCCAGGUCUAGUGGCCCCACCCUCCAUUCCGGACCCCAUGGGCCCAGCCCCUGCCCAUCUAGUUGGUUUGGGGACCUGGAAUUCUCGGGUGCCAA`: “RBNS enrichment (R)” 0.435.
Under “RBNS enrichment (R)”, `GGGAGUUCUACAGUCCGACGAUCAAAAGUGUAUAAUCUGAUACUCUAGCCCAACUGAAAUAUUAUAUCUUGGGCGUUACAGCCUUUGUCUUUUUCUUUAGUCACCUUAAUACCCAGUCCUAUGCUGUAUCUCUUGGAAUUCUCGGGUGCCAA` is recorded as 0.569.
For `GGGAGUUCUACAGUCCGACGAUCGGGUGCCGUGCACAGAGCUCCAUGACCAGCUUGGGAAGUUAGAAGGAAGGGGAGGCAGGAGGCUGCUUAGUCUGCUGCCAUGAUGGGCCCCAUGAAUGGUGGCUCUCAAGUGGAAUUCUCGGGUGCCAA`, “RBNS enrichment (R)” read 1.09.
`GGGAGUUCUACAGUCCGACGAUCGAUGCCCAGCCCAGCAGCAUGCUUUGUACACUGAUAUAUUGGGUAAAUUUUGUUGAAUAAAUUAAGCUCAACUAUUUGUAUUUCAAUAGUUGAGUUGUAUUGCUUCCUGUUGGAAUUCUCGGGUGCCAA` — result for “RBNS enrichment (R)”: 3.15.
`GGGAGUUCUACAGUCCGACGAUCGCCCCCCAUCUUGCUUUCCCAGGGGCUGGCUUAUUGACAUUCCUCACAUGUUCUGAGUAUGGAACCUCAUCUGUGUUGCUUUUUCUUUCUCUGUGUCCUCACUGUGGGGCUGGAAUUCUCGGGUGCCAA` — result for “RBNS enrichment (R)”: 0.755.
For `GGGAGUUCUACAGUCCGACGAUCGCCCCGCCCCUCCUGCCGGGGGAGGCCCAGGGACCGGAGCAUUUCUGCAAGGCCCUUGUGGGCACGAGAGUGCGGCCCUUGCUGCUGGAGAUCUGAGGUCACUGCUGUGAUGGAAUUCUCGGGUGCCAA`, “RBNS enrichment (R)” read 0.59.
`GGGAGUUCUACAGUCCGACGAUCGUCAGAAGAUCUAAAGCCUUCCUUCAUAUUCCAGUUCUGUGAGUCCCUAACAGCAGGCAGCAUCCAUGCUGAAGCACAUACACCUCCGCUCCUCACCAGUGGGUUUUCUUUGGAAUUCUCGGGUGCCAA`: “RBNS enrichment (R)” 0.436.
For `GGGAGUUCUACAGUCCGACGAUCUGACUUGUGCUGUAUGAUUCUCACUGAAGAAUUUCCUUUCAGCCAAGAAGCAGUGAGGUCUGGGAAUAUUCCAAAGUCAUGUCUCUGAAUAUGUGUCCUUGACGUGCAAGUGGAAUUCUCGGGUGCCAA`, “RBNS enrichment (R)” read 0.354.
Under “RBNS enrichment (R)”, `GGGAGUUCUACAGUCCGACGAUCUGUUCCUUUCACAAGCAAGCCUUAAAAAAAGAGAAAAAGAAAAAAAAAAGACAACUUCCUUUCUCUUCAGACCCCCACACCCACUUUUCUUAGCAGACGGCAGUCAAUCCUGGAAUUCUCGGGUGCCAA` is recorded as 0.504.

Series 3 — technique: RNA Bind-n-Seq; form: RNA; matrix: in vitro; concentration: not given; baseline: input RNA pool; reading: higher = stronger binding
Target: RING finger protein unkempt homolog, zinc fingers 1-6, GST-SBP tag (UNK, Homo sapiens, UniProt Q9C0B0, residues 30-357)
UniProt Q9C0B0, sequence (30-357, looked up): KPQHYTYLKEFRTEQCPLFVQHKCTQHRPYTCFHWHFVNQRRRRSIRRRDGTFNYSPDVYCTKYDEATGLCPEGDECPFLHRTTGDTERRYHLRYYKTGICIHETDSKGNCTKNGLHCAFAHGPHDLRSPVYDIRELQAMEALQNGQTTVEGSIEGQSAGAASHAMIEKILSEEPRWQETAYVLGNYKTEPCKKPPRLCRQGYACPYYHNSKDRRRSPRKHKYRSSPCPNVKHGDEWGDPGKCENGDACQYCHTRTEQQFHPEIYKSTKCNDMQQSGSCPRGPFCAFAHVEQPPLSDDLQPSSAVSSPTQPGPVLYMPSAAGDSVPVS
Notes: RNA with constant flanks, human and mouse sites, ends assumed
`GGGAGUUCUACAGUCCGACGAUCGUAUACGGUUAUCGAGGAAAGGACUGUAGAGCGAAUGUAUACCUGCUUCCCACAGGGGAGAUAGUUUAUUUUAUCGCCUCAGUGGUAGUCCUGUUUAAUUAUGAGGAGAGGACUCAGCGACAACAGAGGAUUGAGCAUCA` has a bound/input enrichment of 0.37 ratio.
With `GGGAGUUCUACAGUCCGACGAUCUUAAUAAUAGGAAAAGGAGGUGAAACCAUAAAAAGCAUAAGCCAGCAGUCUGGUGCAAGAAUAGAACUUCAGAGAAAUCCUCCACCAAAUGCAGAUCCUAAUAUGAAGUUAUUUACAAUUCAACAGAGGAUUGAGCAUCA` the bound/input enrichment was 0.296 ratio.
`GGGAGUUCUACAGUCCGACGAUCCCUCUGCUUCCGCACUCCCCUGCCUGCCUUUUGGCAACAUUUUUUUUCUUAUUUUUUUUUAAUAGUGUAUAUUUUUUUUCUUUUUCUUUUUUUCUUUUUUUUUUUUAAGAAAAAAACAAACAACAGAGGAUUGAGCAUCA` has a bound/input enrichment of 112 ratio.
For `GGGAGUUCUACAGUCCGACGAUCUUUACCACCAGAGACUUCUCCAUUCGGUCCCUAGCCGACCGCUUGGGAGACUUGAAUUACCUUAUCUACGUGUUUCCUGAUCGGCCAAAAGAUGAAGUAUACUCCAAAUACUACACACCACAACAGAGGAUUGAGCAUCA`, the bound/input enrichment was 0.214 ratio.
With `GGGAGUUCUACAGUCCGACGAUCUGUUACUCUUAUUUAAUAUAAUCUCUAUUGUAUUGAUUUCUUCUGUAUUUACCUUUUGGAUUUUGUAAAACAGAAGUUUAAGACCACAAGUUAGAAGAAAGGUCACAUAUUUCAAACACACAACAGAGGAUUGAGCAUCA` the bound/input enrichment was 0.587 ratio.
`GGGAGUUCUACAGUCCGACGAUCAUUAAAAAUGCUUGUCUACAAACAUCUUCCCUUGCGGUUCGUGUAAAUUCAUUAGUGUGCUUAGGAAAGAUUUUGGAAUACUUGGAUAAGUGGUUUGUACUUGAUGAUAUCCUACCCUUCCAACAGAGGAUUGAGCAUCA` gave a bound/input enrichment of 0.348 ratio.
With `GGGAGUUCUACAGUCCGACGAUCACAUUUAUGUCGCCAGGCUUUCCAGUCAAUAACAGCAGCAGUGAUAAUGCUCAGAACUUUAGUUUUAAAACAAACUCUGGAUUUGCUGCUGCCUCUUCUGGAAGCCCUGCUGGUUUUGGGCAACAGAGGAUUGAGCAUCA` the bound/input enrichment was 0.155 ratio.
For `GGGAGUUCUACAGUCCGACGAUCGUUAAUCACAGCUUGGAUUUGCAGCCAGUUACUUACUCGGAACCUGCAUUCUGGUGUUCAAUCGCAUACUAUGAACUAAACCAGAGGGUUGGAGAGACCUUCCAUGCGUCACAGCCCUCGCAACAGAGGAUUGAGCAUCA`, the bound/input enrichment was 0.138 ratio.
`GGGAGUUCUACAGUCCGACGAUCGACAGCGACCUGCAGCUGGACCGCAUCUCUGUGUACUACAAUGAAGCCACAGGUGGCAAAUAUGUUCCUCGUGCCAUCCUGGUGGAUCUAGAACCUGGGACCAUGGACUCUGUUCGCUCACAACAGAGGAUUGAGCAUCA` has a bound/input enrichment of 0.141 ratio.
The bound/input enrichment of `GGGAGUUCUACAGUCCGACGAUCGCGGAGAAGGACUCCCUGGACCCCUCCUUCACGCACGCCCUGCGCCUGGUGAACCAAGAAAUAGAAAAGUUUCAAAAAGGAGAAGGCAAGGAUGAAGAAAAGUACAUCGAUGUGGUGAUUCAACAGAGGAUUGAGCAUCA` is reported as 0.219 ratio.
`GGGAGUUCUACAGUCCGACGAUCAAUACUGUUCCUGGAUAUGACUUUUUGGUGAAUUCUGUUUGGCCACAAAUAGUACAAGGAUUAGAAGAAAAGUUACCCUCGCUUUUUAAUCCUGGGAAUCCCGAUGCAUUUCAUGAGAAACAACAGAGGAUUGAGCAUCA` has a bound/input enrichment of 0.14 ratio.

Series 4 — technique: RNAcompete; form: RNA; matrix: in vitro; concentration: 20 nM; notes: 7-mer, probes averaged, single round; baseline: mean of 7-mers; reading: higher = stronger binding
Target: PABPC1L2, full length, GST fusion (mouse, UniProt A0ABA7IW68)
Target sequence (chain): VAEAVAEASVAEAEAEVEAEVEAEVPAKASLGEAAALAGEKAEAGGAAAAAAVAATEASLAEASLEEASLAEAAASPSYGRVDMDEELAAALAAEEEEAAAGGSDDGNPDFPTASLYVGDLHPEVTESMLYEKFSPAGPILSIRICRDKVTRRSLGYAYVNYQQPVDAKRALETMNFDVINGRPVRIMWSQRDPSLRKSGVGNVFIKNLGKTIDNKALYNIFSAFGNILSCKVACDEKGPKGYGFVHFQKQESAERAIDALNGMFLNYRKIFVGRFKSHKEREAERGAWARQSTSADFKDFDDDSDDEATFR
With `UGACCUC` the 7-mer Z-score was -0.202.
`GUCCUUG` has a 7-mer Z-score of -0.269.
For `UAUCUUU`, the 7-mer Z-score was -0.119.
`AGCAGGU` gave a 7-mer Z-score of 0.0152.
For `CAGAAAA`, the 7-mer Z-score was 5.19.
With `GCGGGCC` the 7-mer Z-score was -0.171.
For `CUCCUCU`, the 7-mer Z-score was -0.329.
`UCGUGAG` has a 7-mer Z-score of -0.425.
`UGUGAUA` gave a 7-mer Z-score of -0.22.
The 7-mer Z-score of `UAUUUCA` is reported as -0.175.
For `GGUAGGC`, the 7-mer Z-score was 0.245.
The 7-mer Z-score of `UUUCCUU` is reported as -0.394.
`AGCCUAC` has a 7-mer Z-score of -0.351.
With `GUUGUCC` the 7-mer Z-score was -0.405.
`GACCAAU` has a 7-mer Z-score of -0.021.
The 7-mer Z-score of `GAGAGGU` is reported as -0.0736.
The 7-mer Z-score of `CAAGGGC` is reported as 0.263.
`AUAACCU` has a 7-mer Z-score of -0.188.
For `AGCCGGA`, the 7-mer Z-score was -0.0355.
`AAUUUAG` gave a 7-mer Z-score of 0.671.
The 7-mer Z-score of `UAGGAAC` is reported as 0.113.
For `UCGCCCA`, the 7-mer Z-score was -0.436.
With `AACUCAA` the 7-mer Z-score was 0.0895.
The 7-mer Z-score of `UCGGGGG` is reported as 0.32.
`UCCACUC` has a 7-mer Z-score of -0.291.

Some of these lines once more (series 1):
`AAGCGAAG` has an E-score of 0.129.
For `AGCCGGTC`, the E-score was -0.0291.
With `TGCGCCAA` the E-score was 0.0358.
For `CGTCCGCA`, the E-score was 0.0355.
`ACACAGCG` has an E-score of 0.231.
The E-score of `AAAGAGCC` is reported as -0.163.
With `CAATGCGG` the E-score was 0.114.
`GCGCCTCA` has an E-score of -0.0233.
The E-score of `ATATCCCA` is reported as 0.165.
With `CCCTACCA` the E-score was -0.0459.
For `ATTACGAG`, the E-score was -0.0984.
